Published values from different studies.
Values joined by “and” are separate records of one study, mostly repeats; a detail may differ. ± gives the spread as reported.
Lrrk2: Leucine-rich repeat serine/threonine-protein kinase 2 (Lrrk2, Mus musculus, UniProt Q5S006)
UniProt Q5S006, sequence (whole entry, looked up): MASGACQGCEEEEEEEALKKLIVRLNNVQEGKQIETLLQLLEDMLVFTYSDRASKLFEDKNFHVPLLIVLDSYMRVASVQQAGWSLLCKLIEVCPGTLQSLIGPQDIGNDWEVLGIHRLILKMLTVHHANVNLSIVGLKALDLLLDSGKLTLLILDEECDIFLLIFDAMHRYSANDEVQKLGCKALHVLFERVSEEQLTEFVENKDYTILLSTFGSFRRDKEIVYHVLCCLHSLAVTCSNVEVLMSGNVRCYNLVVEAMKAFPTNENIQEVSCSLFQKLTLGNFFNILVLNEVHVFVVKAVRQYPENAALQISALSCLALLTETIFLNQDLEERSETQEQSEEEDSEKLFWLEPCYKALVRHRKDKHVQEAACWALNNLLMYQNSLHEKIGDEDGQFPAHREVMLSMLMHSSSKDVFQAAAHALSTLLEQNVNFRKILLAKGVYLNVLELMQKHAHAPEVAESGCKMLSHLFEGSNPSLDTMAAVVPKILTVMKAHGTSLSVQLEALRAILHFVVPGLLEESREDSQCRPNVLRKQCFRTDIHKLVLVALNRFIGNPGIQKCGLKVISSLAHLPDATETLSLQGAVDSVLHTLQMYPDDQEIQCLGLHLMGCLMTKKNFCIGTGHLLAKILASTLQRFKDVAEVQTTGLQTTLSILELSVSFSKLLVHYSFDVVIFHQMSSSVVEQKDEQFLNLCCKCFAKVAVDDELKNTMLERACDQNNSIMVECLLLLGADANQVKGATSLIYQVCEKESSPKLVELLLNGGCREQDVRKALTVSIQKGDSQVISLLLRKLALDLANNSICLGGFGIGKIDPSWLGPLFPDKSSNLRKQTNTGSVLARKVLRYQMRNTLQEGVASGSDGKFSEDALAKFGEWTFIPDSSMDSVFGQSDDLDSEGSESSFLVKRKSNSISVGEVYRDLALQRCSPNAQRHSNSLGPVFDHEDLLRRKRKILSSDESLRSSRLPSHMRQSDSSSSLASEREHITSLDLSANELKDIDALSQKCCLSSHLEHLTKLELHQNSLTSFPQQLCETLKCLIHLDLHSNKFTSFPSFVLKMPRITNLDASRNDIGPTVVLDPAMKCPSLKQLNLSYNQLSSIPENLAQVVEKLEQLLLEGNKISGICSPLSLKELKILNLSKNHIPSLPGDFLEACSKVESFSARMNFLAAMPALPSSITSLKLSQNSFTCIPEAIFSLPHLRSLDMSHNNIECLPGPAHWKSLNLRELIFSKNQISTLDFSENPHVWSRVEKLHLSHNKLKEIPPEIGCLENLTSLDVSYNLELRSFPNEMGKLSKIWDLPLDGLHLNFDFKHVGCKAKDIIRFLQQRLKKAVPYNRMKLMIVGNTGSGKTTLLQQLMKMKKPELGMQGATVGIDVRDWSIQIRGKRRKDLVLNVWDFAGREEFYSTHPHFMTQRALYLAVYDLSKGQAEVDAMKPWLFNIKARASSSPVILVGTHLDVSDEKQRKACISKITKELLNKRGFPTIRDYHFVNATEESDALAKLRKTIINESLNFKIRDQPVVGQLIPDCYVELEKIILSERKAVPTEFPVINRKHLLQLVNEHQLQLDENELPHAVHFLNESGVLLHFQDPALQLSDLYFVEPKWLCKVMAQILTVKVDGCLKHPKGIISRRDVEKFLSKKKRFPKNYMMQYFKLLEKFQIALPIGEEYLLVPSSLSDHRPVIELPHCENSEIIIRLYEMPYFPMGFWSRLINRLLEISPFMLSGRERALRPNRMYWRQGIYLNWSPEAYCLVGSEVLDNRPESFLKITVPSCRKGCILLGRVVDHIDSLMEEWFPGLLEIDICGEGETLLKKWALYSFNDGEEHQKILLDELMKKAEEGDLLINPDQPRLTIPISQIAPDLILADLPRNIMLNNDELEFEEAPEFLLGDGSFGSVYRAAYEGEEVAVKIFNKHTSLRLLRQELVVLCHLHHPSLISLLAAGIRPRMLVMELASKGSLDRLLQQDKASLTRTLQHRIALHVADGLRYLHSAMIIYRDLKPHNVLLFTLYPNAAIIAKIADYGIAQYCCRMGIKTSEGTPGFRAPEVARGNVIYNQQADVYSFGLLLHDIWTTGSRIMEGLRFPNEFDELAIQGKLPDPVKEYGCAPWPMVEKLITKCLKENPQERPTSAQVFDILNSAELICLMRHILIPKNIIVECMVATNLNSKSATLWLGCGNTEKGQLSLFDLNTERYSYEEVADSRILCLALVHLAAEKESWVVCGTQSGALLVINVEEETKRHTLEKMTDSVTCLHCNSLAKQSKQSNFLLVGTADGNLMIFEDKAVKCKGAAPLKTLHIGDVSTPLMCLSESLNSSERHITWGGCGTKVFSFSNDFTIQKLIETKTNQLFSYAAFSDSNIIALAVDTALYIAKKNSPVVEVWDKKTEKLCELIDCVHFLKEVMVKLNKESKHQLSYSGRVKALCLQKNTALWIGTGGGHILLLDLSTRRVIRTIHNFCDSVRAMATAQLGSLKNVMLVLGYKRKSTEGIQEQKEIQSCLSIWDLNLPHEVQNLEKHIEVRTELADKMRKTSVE
CYP2E1: Cytochrome P450 2E1 (CYP2E1, Homo sapiens, UniProt P05181)
UniProt P05181, sequence (whole entry, looked up): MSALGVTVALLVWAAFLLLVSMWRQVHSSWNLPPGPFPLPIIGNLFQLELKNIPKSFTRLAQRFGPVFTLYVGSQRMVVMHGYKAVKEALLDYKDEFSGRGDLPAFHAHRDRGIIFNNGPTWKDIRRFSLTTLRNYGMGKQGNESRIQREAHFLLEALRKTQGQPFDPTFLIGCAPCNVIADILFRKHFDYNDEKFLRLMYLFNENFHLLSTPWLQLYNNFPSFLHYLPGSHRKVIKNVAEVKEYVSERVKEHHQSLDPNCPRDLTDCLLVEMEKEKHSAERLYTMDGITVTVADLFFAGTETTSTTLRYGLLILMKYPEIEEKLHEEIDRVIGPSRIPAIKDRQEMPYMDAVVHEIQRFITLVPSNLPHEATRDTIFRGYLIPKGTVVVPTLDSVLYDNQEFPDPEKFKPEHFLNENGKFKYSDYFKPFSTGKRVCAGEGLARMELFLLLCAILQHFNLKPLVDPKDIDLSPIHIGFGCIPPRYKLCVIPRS
SHMT1: Serine hydroxymethyltransferase, cytosolic (SHMT1, Homo sapiens, UniProt P34896)
UniProt P34896, sequence (whole entry, looked up): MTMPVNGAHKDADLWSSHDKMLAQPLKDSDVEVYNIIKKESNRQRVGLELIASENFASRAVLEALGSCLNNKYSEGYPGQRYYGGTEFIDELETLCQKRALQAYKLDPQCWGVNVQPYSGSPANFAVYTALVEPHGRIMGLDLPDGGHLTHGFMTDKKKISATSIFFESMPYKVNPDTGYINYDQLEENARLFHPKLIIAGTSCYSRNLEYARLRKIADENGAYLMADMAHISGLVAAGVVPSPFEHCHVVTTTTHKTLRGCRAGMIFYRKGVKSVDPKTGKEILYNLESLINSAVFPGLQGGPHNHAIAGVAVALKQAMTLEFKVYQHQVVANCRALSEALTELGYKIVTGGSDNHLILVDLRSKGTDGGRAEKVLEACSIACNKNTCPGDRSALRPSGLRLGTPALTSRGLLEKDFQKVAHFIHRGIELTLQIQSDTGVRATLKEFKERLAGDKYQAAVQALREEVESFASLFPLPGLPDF
FLP: Female-specific lacrimal gland protein (FLP, Mesocricetus auratus, UniProt Q99MG7)
UniProt Q99MG7, sequence (whole entry, looked up): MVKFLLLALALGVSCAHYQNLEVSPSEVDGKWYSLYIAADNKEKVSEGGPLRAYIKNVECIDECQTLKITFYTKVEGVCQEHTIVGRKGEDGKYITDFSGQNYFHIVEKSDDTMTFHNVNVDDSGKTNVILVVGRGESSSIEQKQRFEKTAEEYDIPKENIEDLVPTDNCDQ
NNMT: Nicotinamide N-methyltransferase (NNMT, Homo sapiens, UniProt P40261)
UniProt Q8TF42, sequence (whole entry, looked up): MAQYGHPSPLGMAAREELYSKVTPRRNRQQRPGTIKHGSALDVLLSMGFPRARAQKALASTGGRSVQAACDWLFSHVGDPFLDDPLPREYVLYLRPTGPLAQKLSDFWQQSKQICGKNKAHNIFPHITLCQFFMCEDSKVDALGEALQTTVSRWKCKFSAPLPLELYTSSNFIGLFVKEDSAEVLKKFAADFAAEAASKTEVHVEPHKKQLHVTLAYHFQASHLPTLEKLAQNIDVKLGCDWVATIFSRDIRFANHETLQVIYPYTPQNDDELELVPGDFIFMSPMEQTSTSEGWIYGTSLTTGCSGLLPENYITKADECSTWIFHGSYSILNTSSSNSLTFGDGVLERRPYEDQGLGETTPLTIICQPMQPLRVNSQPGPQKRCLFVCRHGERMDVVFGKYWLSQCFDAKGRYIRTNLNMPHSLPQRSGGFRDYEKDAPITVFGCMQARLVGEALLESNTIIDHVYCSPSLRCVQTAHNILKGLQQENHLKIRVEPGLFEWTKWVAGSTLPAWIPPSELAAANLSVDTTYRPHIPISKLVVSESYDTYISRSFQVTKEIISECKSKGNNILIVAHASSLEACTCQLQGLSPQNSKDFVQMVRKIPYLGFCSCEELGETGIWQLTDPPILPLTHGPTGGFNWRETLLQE
UniProt Q16696, sequence (whole entry, looked up): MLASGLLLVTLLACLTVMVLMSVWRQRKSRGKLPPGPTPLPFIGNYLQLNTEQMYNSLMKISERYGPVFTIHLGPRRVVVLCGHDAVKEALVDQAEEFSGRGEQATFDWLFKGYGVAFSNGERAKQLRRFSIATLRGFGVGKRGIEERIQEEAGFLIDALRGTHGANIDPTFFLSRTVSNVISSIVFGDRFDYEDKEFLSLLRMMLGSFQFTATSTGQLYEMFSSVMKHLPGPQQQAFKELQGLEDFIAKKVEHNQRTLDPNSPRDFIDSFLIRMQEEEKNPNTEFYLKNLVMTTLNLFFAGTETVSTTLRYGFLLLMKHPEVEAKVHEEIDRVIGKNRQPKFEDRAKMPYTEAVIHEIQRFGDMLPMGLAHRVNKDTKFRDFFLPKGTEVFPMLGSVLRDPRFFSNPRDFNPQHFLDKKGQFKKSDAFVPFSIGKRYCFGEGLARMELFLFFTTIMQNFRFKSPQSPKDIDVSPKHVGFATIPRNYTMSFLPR

Substance	target	test	system	setting	Ki
Nc1nc2c(ncn2[C@@H]2O[C@H](COP(=O)(O)OP(=O)(O)O)[C@@H](O)[C@H]2O)c(=O)[nH]1	Lrrk2	GTPase activity, inhibitor, radiometric TLC	–	with: GTP	49 µM
CCOC(=O)[C@]1(CS)N[C@H](C(=O)O)C(C)(C)S1	sfhI (Serratia fonticola, UniProt Q9RMI1)	enzyme activity, inhibitor	–	pH 7.5, 30 °C, with: imipenem substrate	1.3 ± 0.1 µM
CCCCCC/C=C/C=O	CYP2E1	competitive inhibitor	human liver S9	30 min, pH 7.4, with: p-nitrophenol substrate	2.9 ± 0.2 µM
O=C(O)C(CCc1ccccc1)[C@@H]1CCN[C@H]1C(=O)O (relative stereo)	native NMDA receptors	binding, radioligand displacement	rat cortical synaptosomes	with: [3H]CGP ligand	> 100 µM
Nc1ncnc2c1ncn2[C@@H]1O[C@H](COP(=O)(O)OP(=O)(O)NP(=O)(O)O)[C@@H](O)[C@H]1O	Lrrk2	enzyme activity, inhibitor	–	–	700 µM
Cc1c[nH]c(=O)[nH]c1=O	uracil transporter	uracil uptake, inhibitor	Trypanosoma brucei brucei, bloodstream form	30 s, with: 0.15 µM [3H]-uracil	> 2500 µM
O=C1C(=NNc2ccc(S(=O)(=O)O)cc2)C(c2ccc([N+](=O)[O-])cc2)=NN1c1ccccc1	UBASH3B (Homo sapiens, UniProt Q8TF42)	enzyme activity, inhibitor, absorbance	–	–	1.05 µM and 1 µM
O=C1CCNC(=O)N1	uracil transporter	uracil uptake, inhibitor	Trypanosoma brucei brucei, bloodstream form	30 s, with: 0.15 µM [3H]-uracil	> 5000 µM
CCCN(CC[C@]1(O)C[C@H](NS(=O)(=O)c2ccccc2OC)C1)[C@H]1CCc2nc(N)sc2C1 (relative stereo)	dopamine D2-like receptor, rat	radioligand binding	rat striatal membranes	high-affinity component, with: [3H]spiperone	0.17 ± 0.018 µM
O=c1cc[nH]c(=S)[nH]1	uracil transporter	uracil uptake, inhibitor	Trypanosoma brucei brucei, bloodstream form	30 s, with: 0.15 µM [3H]-uracil	700 ± 130 µM
Cc1nc2ccc(CN(C)c3ccc(C(=O)N[C@@H](CCC(=O)O)C(=O)O)s3)cc2c(=O)[nH]1	SHMT1	enzyme activity, absorbance	–	pH 7.2	122 µM
CCCN(CCC1(O)CC(NS(=O)(=O)c2ccc(OC)cc2)C1)[C@H]1CCc2nc(N)sc2C1 (stereo in doubt)	dopamine D2-like receptor, rat	radioligand binding	rat striatal membranes	high-affinity component, with: [3H]spiperone	0.102 ± 0.015 µM
O=c1[nH]cc(I)c(=O)[nH]1	uracil transporter	uracil uptake, inhibitor	Trypanosoma brucei brucei, bloodstream form	30 s, with: 0.15 µM [3H]-uracil	1300 ± 70 µM
CCCCCCCCCCCCO	FLP	binding, fluorescence displacement	–	with: 1-NPN 2 µM	0.17 µM
CC(C)[C@@H]1CC[C@@H](C)C[C@H]1O	Cytochrome P450 2A13 (Homo sapiens, UniProt Q16696)	enzyme activity, inhibitor	–	10 min, pH 7.4	8.2 µM and 8.17 µM
Nc1ccn([C@@H]2O[C@H](COP(=O)(O)O)[C@@H](O)[C@H]2O)c(=O)n1	Phosphopantothenoylcysteine synthetase (Enterococcus faecalis, UniProt Q830W3)	enzyme activity, inhibitor	–	pH 7.6, 37 °C, competitive versus CTP, with: CTP	766 ± 90 µM
CCCN(CC[C@]1(O)C[C@H](NC(=O)c2cccc(Cl)c2)C1)[C@H]1CCc2nc(N)sc2C1 (relative stereo)	dopamine D2-like receptor, rat	radioligand binding	rat striatal membranes	high-affinity component, with: [3H]spiperone	0.101 ± 0.012 µM
CCCCCn1c(=O)n(CCCCN2CCN(c3ccc(F)cc3)CC2)c2ccccc21	rat NMDA receptor PCP site	–	rat brain membranes	with: [3H]TCP	> 10 µM
Oc1cccc2c1CC[C@H]1[C@H]2CCCN1CCN1CCN(c2ccccc2)CC1 (racemic)	Drd2 (Rattus norvegicus, UniProt P61169)	ligand displacement, radioligand	–	cell membranes	0.0491 µM and 0.049 µM
CCCCCCCCCC=O	FLP	binding, fluorescence displacement	–	with: 1-NPN 2 µM	1.15 µM
CC1(CCN2CCc3ccccc3C2)Cc2cc(Cl)ccc2C1=O (stereo not drawn)	HTR2A (Homo sapiens, UniProt P28223)	radioligand binding	–	with: [3H]Ketanserin	0.871 µM
CC[N+](CC)(CC)CC	Sh (Drosophila melanogaster, UniProt P08510, C301S/C308S/del6-46/T449F)	potassium current, blocker, voltage clamp	Xenopus oocytes	50 mV holding potential	390 ± 40 µM
CCCCCCC(C)=O	FLP	binding, fluorescence displacement	–	with: 1-NPN 2 µM	4 µM
CCCN(CCC1(O)CC(NC(=O)c2ccccc2Cl)C1)[C@H]1CCc2nc(N)sc2C1 (stereo in doubt)	dopamine D2-like receptor, rat	radioligand binding	rat striatal membranes	high-affinity component, with: [3H]spiperone	0.072 ± 0.011 µM

Substance	target	test	system	setting	Ki
Nc1ncnc2c1ncn2[C@@H]1O[C@H](CSCC[C@H](N)C(=O)O)[C@@H](O)[C@H]1O	NNMT	ligand displacement, FP	–	–	82.9 µM
CC(=O)N[C@@H](CS)C(=O)O	Myeloperoxidase (MPO, Homo sapiens, UniProt P05164)	enzyme activity, inhibitor	–	–	0.1 µM
CCCCCCCCCC=O	CYP2E1	competitive inhibitor	human liver S9	30 min, pH 7.4, with: p-nitrophenol substrate	17 ± 1 µM
CCCN(CCC1(O)CC(NC(=O)c2ccc(OC)cc2)C1)[C@H]1CCc2nc(N)sc2C1 (stereo in doubt)	dopamine D2-like receptor, rat	radioligand binding	rat striatal membranes	high-affinity component, with: [3H]spiperone	2.66 ± 0.461 µM
CC(C)=CCC/C(C)=C/CO	FLP	binding, fluorescence displacement	–	with: 1-NPN 2 µM	1.1 µM
C[C@@H]1O[C@@H](Oc2cc(O)c3c(=O)c(O)c(-c4ccc(O)c(O)c4)oc3c2)[C@H](O)[C@H](O)[C@H]1O	Replicase polyprotein 1ab, main protease (Feline coronavirus, UniProt Q98VG9)	enzyme activity, inhibitor, fluorescence	–	–	45.2 µM
Nc1ncnc2c1ncn2[C@@H]1O[C@H](COP(=O)(O)OP(=O)(O)C(Cl)(Cl)P(=O)(O)O)[C@@H](O)[C@H]1O	Tyrosine-protein kinase JAK3, activated (JAK3, Homo sapiens, UniProt P52333)	binding, LanthaScreen Eu binding	–	–	0.073 µM
CCCN(CCC1(O)CC(NC(=O)c2ccc(Cl)cc2)C1)[C@H]1CCc2nc(N)sc2C1 (stereo in doubt)	dopamine D2-like receptor, rat	radioligand binding	rat striatal membranes	high-affinity component, with: [3H]spiperone	0.244 ± 0.046 µM
CCCC/C=C/C=O	CYP2E1	competitive inhibitor	human liver S9	30 min, pH 7.4, with: p-nitrophenol substrate	5.6 ± 0.1 µM
Cc1cc(=O)[nH]c(=O)[nH]1	uracil transporter	uracil uptake, inhibitor	Trypanosoma brucei brucei, bloodstream form	30 s, with: 0.15 µM [3H]-uracil	> 5000 µM
O=C1O[C@H](CO)[C@@H](O)[C@H](O)[C@H]1O	beta-glucosidase (Penicillium italicum)	non-competitive inhibitor	–	up to 0.8 mM, pH 4.5, 60 °C, with: pNP-glucoside	11300 µM
CCCCCc1ccc(O)c(C(=O)O)c1	KAT8 (Homo sapiens, UniProt Q9H7Z6)	enzyme activity, inhibitor	–	up to 400 µM, with: 4 µM acetyl-CoA, 60 µM histone substrate	no inhibition
O=c1ccn([C@H]2C[C@H](O)[C@@H](CO)O2)c(=O)[nH]1	uracil transporter	uracil uptake, inhibitor	Trypanosoma brucei brucei, bloodstream form	30 s, with: 0.15 µM [3H]-uracil	1150 ± 340 µM
1-methylquinoline	NNMT	inhibitor, fluorescence polarisation competition	–	–	> 1000 µM
CCCN(CC[C@]1(O)C[C@@H](NC(=O)c2cccc(OC)c2)C1)[C@H]1CCc2nc(N)sc2C1 (relative stereo)	dopamine D2-like receptor, rat	radioligand binding	rat striatal membranes	high-affinity component, with: [3H]spiperone	9.79 ± 1.5 µM
C=Cc1ccc(O)cc1	CYP2E1	inhibitor	–	30 min, pH 7.4	230 µM
Cc1ccc2nc(N)[nH]c(=O)c2c1Sc1ccncc1	SHMT1	enzyme activity, absorbance	–	pH 7.2	> 1000 µM
CCCN(CCC1(O)CC(NC(=O)c2ccccc2F)C1)[C@H]1CCc2nc(N)sc2C1 (stereo in doubt)	dopamine D2-like receptor, rat	radioligand binding	rat striatal membranes	high-affinity component, with: [3H]spiperone	17 ± 4.09 µM
CC(=O)N[C@H](CSSC[C@H](N)C(=O)O)C(=O)N[C@H](C)C(=O)N[C@H](CCCNC(=N)N)C(=O)N[C@H](CCCNC(=N)N)C(=O)N[C@H](CCCNC(=N)N)C(=O)N[C@H](C)C(=O)N[C@H](CCCNC(=N)N)C(N)=O	CASR (Homo sapiens, UniProt P41180)	allosteric activator, population PK/PD model	haemodialysis patients with secondary hyperparathyroidism	intravenous	0.6 µM
[Ca+2]	Cyclic nucleotide-gated channel alpha-2 (CNGA2, Bos taurus, UniProt Q03041, E340G)	single-channel current, blocker, outside-out patch	–	E340G mutant, -80 mV, with: cGMP 1 mM	8800 µM
O=c1ccnc[nH]1	uracil transporter	uracil uptake, inhibitor	Trypanosoma brucei brucei, bloodstream form	30 s, with: 0.15 µM [3H]-uracil	4410 ± 1090 µM
O=S1(=O)O[C@@H]2[C@H](O)[C@@H](O)[C@H](O)[C@@H](CO)[C@@H]2O1	GBA1 (Homo sapiens, UniProt P04062, R534H)	enzyme activity, irreversible inhibitor	–	pH 5.2, 37 °C, with: 2,4-DNP-β-Glc	> 500 µM
CCCCCC(C)=O	FLP	binding, fluorescence displacement	–	with: 1-NPN 2 µM	14.1 µM
Nc1ncnc2c1ncn2[C@@H]1O[C@H](COP(=O)(O)OP(=O)(O)O)[C@@H](O)[C@H]1O	Lrrk2	GTPase activity, inhibitor, radiometric TLC	–	with: GTP	300 µM

Excerpt of the above:
Substance	target	test	system	setting	Ki
O=C1CCNC(=O)N1	uracil transporter	uracil uptake, inhibitor	Trypanosoma brucei brucei, bloodstream form	30 s, with: 0.15 µM [3H]-uracil	> 5000 µM
CCCN(CC[C@]1(O)C[C@H](NS(=O)(=O)c2ccccc2OC)C1)[C@H]1CCc2nc(N)sc2C1 (relative stereo)	dopamine D2-like receptor, rat	radioligand binding	rat striatal membranes	high-affinity component, with: [3H]spiperone	0.17 ± 0.018 µM
O=c1cc[nH]c(=S)[nH]1	uracil transporter	uracil uptake, inhibitor	Trypanosoma brucei brucei, bloodstream form	30 s, with: 0.15 µM [3H]-uracil	700 ± 130 µM
Cc1nc2ccc(CN(C)c3ccc(C(=O)N[C@@H](CCC(=O)O)C(=O)O)s3)cc2c(=O)[nH]1	SHMT1	enzyme activity, absorbance	–	pH 7.2	122 µM
CCCN(CCC1(O)CC(NS(=O)(=O)c2ccc(OC)cc2)C1)[C@H]1CCc2nc(N)sc2C1 (stereo in doubt)	dopamine D2-like receptor, rat	radioligand binding	rat striatal membranes	high-affinity component, with: [3H]spiperone	0.102 ± 0.015 µM
